Results pooled from the literature.
Parts stem from different laboratories: compare values within a part only.

Series 1 — technique: protein-binding microarray; form: double-stranded DNA, one strand shown; sample: in vitro; tested at: 2540 nM top; setting: 60-bp whole probe; added: salmon DNA 0.4 mg/ml; relative to: random background probes; direction: higher = stronger binding; quantity: fitted relative affinity; shared flanks, not repeated: GCCTAGCAC … GTCTTGATTCGCTTGACGCTGCTG
Target: Interferon regulatory factor 3, full length, phosphomimetic (IRF3, Homo sapiens, UniProt Q14653, residues 1-427, S386D/S396D/S398D/S402D/T404D/S405D)
Residues (chain): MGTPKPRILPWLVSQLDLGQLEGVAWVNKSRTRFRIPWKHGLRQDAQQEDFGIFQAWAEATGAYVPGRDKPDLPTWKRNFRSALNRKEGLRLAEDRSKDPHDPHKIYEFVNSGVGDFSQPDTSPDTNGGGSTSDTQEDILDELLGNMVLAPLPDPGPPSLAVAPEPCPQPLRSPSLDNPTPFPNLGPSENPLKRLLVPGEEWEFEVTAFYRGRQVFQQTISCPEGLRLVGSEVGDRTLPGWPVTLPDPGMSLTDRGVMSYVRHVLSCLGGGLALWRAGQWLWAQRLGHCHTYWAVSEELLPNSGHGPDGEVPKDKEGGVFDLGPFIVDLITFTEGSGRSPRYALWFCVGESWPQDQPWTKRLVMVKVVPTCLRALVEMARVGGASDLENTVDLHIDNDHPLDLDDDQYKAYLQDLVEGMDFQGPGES
Oligonucleotide = GACGGTCTCGTTCTCCTGACGTGCTAG; result = 1.82 z-score
Oligonucleotide = GACGAACTGGGGTATCGATACGTGCTA; result = -0.00898 z-score
Oligonucleotide = GACGGTTTCTTACTGCTGACGTGCTAG; result = 2.08 z-score
Oligonucleotide = GACGGTATCCTACTGTTGACGTGCTAG; result = 2.56 z-score
Oligonucleotide = CGAGTTTCTATTTTCTGAATGTGCTAG; result = 4.58 z-score

Series 2 — technique: RNA Bind-n-Seq; form: RNA; sample: in vitro; tested at: 200 nM; setting: whole 134-nt RNA, ends assumed; added: 150 mM LiCl; relative to: input library; direction: higher = stronger binding; quantity: log2 enrichment; library: 7-deaza-guanosine replaces G
Target: Ras GTPase-activating protein-binding protein 1, full length (G3BP1, Homo sapiens, UniProt Q13283)
UniProt Q13283, sequence (whole entry, looked up): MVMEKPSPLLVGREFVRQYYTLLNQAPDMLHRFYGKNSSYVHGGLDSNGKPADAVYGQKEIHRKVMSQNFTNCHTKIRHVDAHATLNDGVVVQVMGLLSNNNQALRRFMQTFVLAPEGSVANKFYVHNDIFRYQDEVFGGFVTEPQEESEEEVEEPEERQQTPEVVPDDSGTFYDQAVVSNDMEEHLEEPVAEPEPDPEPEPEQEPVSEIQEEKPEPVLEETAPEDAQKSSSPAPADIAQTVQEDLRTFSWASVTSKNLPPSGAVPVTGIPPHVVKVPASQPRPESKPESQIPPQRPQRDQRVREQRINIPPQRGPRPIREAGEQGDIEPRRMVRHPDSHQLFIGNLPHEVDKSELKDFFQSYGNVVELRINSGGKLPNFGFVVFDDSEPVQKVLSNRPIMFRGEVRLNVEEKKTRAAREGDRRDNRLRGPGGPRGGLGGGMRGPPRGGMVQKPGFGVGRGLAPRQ
Shared flanks, not repeated: GGGAGUUCUACAGUCCGACGAUC … UGGAAUUCUCGGGUGUCAAGG
Oligonucleotide = CUGUGCUACACAUCGUAUGUACCGAAUCGGGGAAAAAAAGGGGAAAAAAAGGGGUUUGGGGAAAGUAUUAUGUUACGCCGUUCGGAUCUG; result = -1.07
Oligonucleotide = GACAGACAACACGCACCCACACAGACACAGAGGGAAGGGGUUGGGAUGGGGACAGGGUGCACAGCAGGGCGGGGUAGGACCCCAGCCCCU; result = 0.627
Oligonucleotide = UCCUGUGCUACACAUCGUAUGUACCGAAUCGGGAAAAAAAGGGAAAAAAAGGGUUUGGGAAAGUAUUAUGUUACGCCGUUCGGAUCUGCA; result = -1.72
Oligonucleotide = GCAGGAAGUAAAAACAAAUGGAAAUGCUUCGGGUAGUGGCAGGGGUGGGGGUUGCUAAGGAAAGGGUGGGAUGGGAGUGGGUAAAGAGUU; result = -0.254
Oligonucleotide = CACAGACAACCCGCACCCACACAGACACAGAGGGAAGGGGUUGGGAUGGGGACAGGGUGCACAGCAGGGCGGGGUAGGACCCCAGCCCCU; result = -1.06
Oligonucleotide = GUCCUGUGCUACACAUCGUAUGUACCGAAUCGGCCCCCGGGGCCCCCGGGCCCCCGGGAAAGUAUUAUGUUACGCCGUUCGGAUCUGCAC; result = -1.45

Series 3 — technique: protein binding microarray; form: double-stranded DNA, one strand shown; sample: in vitro; tested at: not given; relative to: not given; direction: higher = stronger binding; quantity: E-score
Target: Histone acetyltransferase KAT6A, winged helix 1, GST fusion (KAT6A, Homo sapiens, UniProt Q92794, residues 1-85)
Setting: 8-mer, flanks averaged, mean of 2 arrays, mostly near background
Target sequence (chain): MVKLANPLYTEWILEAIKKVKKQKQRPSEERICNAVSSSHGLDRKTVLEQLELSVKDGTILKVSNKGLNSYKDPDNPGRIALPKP
Oligonucleotide = TAGCTCGA; result = -0.0977
Oligonucleotide = CTCCAGCA; result = -0.212
Oligonucleotide = ATAGGGAT; result = -0.15
Oligonucleotide = GATTTATA; result = -0.108

Mixed results
Molecule = PhoQ, residues 284 288 289 292 302 303 SSTLLI; target = PhoP, residues 12 14 15 18 19 NIMAP (Escherichia coli, UniProt P23836); assay = Sort-seq, refers to: YFP reporter; test system = E. coli; setting = PhoQ-PhoP variant library, added: 10 µM Mg2+; how to read = relative to: high Mg2+ state, higher = stronger signaling; quantity = fold induction; result = 0.788

For quick reference, copied from above (series 2):
Oligonucleotide = CACAGACAACCCGCACCCACACAGACACAGAGGGAAGGGGUUGGGAUGGGGACAGGGUGCACAGCAGGGCGGGGUAGGACCCCAGCCCCU; result = -1.06
Oligonucleotide = GUCCUGUGCUACACAUCGUAUGUACCGAAUCGGCCCCCGGGGCCCCCGGGCCCCCGGGAAAGUAUUAUGUUACGCCGUUCGGAUCUGCAC; result = -1.45
